Published values gathered from unrelated publications.
Protocols differ between the studies behind these lines. Values joined by “and” are separate records of one study, mostly repeats; a detail may differ. ± gives the spread as reported.
HCRTR1: Orexin/Hypocretin receptor type 1 (HCRTR1, Homo sapiens, UniProt O43613)
Chain of UniProt O43613 (whole entry, looked up): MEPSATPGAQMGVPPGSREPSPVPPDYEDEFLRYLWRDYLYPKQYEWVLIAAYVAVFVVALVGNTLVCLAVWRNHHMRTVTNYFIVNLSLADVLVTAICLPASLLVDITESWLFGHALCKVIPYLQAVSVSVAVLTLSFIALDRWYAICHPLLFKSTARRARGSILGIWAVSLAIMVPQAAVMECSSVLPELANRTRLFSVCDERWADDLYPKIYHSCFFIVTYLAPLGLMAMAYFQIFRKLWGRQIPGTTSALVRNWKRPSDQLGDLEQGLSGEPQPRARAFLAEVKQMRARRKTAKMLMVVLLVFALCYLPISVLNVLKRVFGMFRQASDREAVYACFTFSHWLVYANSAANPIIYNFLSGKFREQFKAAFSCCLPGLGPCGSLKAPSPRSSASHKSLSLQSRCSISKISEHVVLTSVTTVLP
Chain of UniProt O75469 (whole entry, looked up): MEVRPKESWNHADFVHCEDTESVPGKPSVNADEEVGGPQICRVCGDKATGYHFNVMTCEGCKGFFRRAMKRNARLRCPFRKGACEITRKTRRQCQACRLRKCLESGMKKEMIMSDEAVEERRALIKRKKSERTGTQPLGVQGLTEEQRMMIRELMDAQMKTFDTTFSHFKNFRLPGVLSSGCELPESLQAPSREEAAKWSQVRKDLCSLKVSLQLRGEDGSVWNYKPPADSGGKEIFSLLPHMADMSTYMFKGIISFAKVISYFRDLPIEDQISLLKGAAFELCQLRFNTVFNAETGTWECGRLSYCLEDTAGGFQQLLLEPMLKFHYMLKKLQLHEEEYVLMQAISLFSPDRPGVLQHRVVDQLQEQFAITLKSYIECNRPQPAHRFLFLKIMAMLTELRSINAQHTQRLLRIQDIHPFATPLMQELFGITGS

| SMILES | tested on | test | system | conditions | how to read | endpoint | result |
| --- | --- | --- | --- | --- | --- | --- | --- |
| Cc1nc2cccc(OCC(C)(C)C(=O)NC(C)C)c2c(N)c1C(=O)O |  |  | male Sprague-Dawley rat, plasma | oral gavage, 100 mg/kg, day 7 |  | half-life | 0.72 h |
| CCN1CCN(c2ccc(Nc3cc(N(C)C(=O)Nc4c(Cl)c(OC)cc(OC)c4Cl)ncn3)cc2)CC1 |  | LC-MS/MS | juvenile female Crl:WI(Han) rats, plasma | oral gavage, 0.1 mg/kg/day, postnatal day 17 |  | half-life | 4.96 h |
| C#C[C@]1(CO)O[C@@H](n2cnc3c(N)nc(F)nc32)C[C@@H]1O |  |  | human, plasma | oral, 100 mg, single dose, fasted, healthy volunteers |  | half-life | 58.9 h |
| Cn1nnc2c(C(N)=O)ncn2c1=O |  |  | athymic rat, male, intracranial U87 glioma, tumour extracellular fluid, microdialysate | oral, 50 mg/kg, before cediranib |  | half-life | 1.9 h and 1.4 h and 1.6 h and 1.8 h |
| COc1cc2c(cc1OC)C(CCc1ccc(N(C)C)cc1)N(CC(=O)NCc1ccccc1)CC2 (stereo not shown) | HCRTR1 | calcium signal, antagonist, fluorescence |  |  |  | Kb | > 10 µM |
| CNC(C)(C)C(=O)O | rat hippocampal neurons | calcium-independent uptake, substrate |  | 15 min |  | Km | 474 ± 31 µM |
| COc1cccc(-c2ccc(NC(=O)C3=C(C(=O)O)CCC3)c(F)c2)c1 |  |  | male human, plasma | oral, 20 mg, single dose, fasted, healthy volunteers |  | half-life | 28 h |
| Nc1ccc(-c2nc([C@H]3CCc4cc(-c5cc(Cl)ccc5-n5cnnn5)cc(=O)n43)c(F)[nH]2)c(F)n1 |  |  | human, plasma | oral, 80 mg, single dose, fasted |  | half-life | 17.1 h |
| CC(C)=CCC[C@](C)(O[C@@H]1O[C@H](CO)[C@@H](O)[C@H](O)[C@H]1O)[C@H]1CC[C@]2(C)[C@@H]1[C@H](O)C[C@@H]1[C@@]3(C)CC[C@H](O[C@@H]4O[C@H](CO)[C@@H](O)[C@H](O)[C@H]4O[C@@H]4O[C@H](CO)[C@@H](O)[C@H](O)[C@H]4O)C(C)(C)[C@@H]3CC[C@]12C |  |  | Sprague Dawley rats, male, plasma | oral, 42 mg/kg, aqueous solution, with: co-dosed pure ginsenoside mixture |  | half-life | 6.9 ± 2.5 h |
| O=c1cc[nH]c(=O)[nH]1 | Trichomonas vaginalis | transport, measured: nucleoside transporter |  | with: thymidine |  | Ki | > 1000 µM |
| CCCCOc1ccc(CC2c3cc(OC)c(OC)cc3CCN2CC(=O)NCc2ccccc2)cc1OC (stereo not shown) | HCRTR1 | calcium signal, antagonist, fluorescence |  |  |  | Kb | 0.048 µM |
| CCCC[C@H](NC(C)=O)C(=O)N[C@H]1CCC(=O)NC[C@@H](C(=O)N[C@@H](Cc2c[nH]c3ccccc23)C(N)=O)NC(=O)[C@H](CCCNC(=N)N)NC(=O)[C@@H](Cc2ccccc2)NC(=O)[C@H](Cc2c[nH]cn2)NC1=O |  |  | male rat, plasma | subcutaneous, 1 mg/kg/day, multiple doses, once daily |  | half-life | 0.661 h |
| C=CC(=O)Nc1cc(Nc2ncc(C(=O)OC(C)C)c(-c3cn(C)c4ccccc34)n2)c(OC)cc1N(C)CCN(C)C |  |  | human, plasma | oral, 20 mg, single dose, fasted, healthy volunteers |  | half-life | 18.1 h |
| CC(C)(c1ccc(O)cc1)c1ccc(O)cc1 |  | GC-MS | exposure tank water with snails, charcoal-filtered tap water | 500 ng/L nominal, 22 °C |  | half-life | 6.35 h |
| CC(C)[C@H](NC(=O)[C@@H]1CCCN1C(=O)[C@H](CCCNC(=N)N)NC(=O)[C@H](CS)NC(=O)[C@H](Cc1c[nH]c2ccccc12)NC(=O)[C@H](CCCNC(=N)N)NC(=O)[C@@H](Cc1ccccc1)NC(=O)[C@H](Cc1c[nH]cn1)NC(=O)[C@H](CCC(=O)O)NC(=O)[C@H](CS)NC(=O)[C@H](CS)NC(=O)[C@H](CCCCN)NC(=O)[C@@H]1CC(=O)N[C@@H](CCCNC(=N)N)C(=O)N[C@@H](C)C(=O)N[C@@H](CC(=O)O)C(=O)N[C@H](Cc2ccc(O)cc2)C(=O)N1)C(N)=O [technetium-99m labelled] |  |  | C57 mice, lung | intravenous, 0.037 MBq, 0.5 h |  | tissue uptake | 3.91 ± 1.37 %ID/g |
| CCCOc1ccc([C@H]2CNC(=O)N2c2ccc3[nH]cnc3c2)cc1 |  |  | human, plasma | oral, 500 mg, multiple doses, twice daily, fasted |  | half-life | 7.58 h |
| CNCc1ccc(-c2[nH]c3cc(F)cc4c3c2CCNC4=O)cc1 |  |  | human patients, plasma | oral, 500 mg once daily, day 1, single dose, arithmetic mean |  | half-life | 15 h |
| Cc1cc(C(=O)NC(C)(C)COc2cccc3c2C(N)=NS(=O)(=O)N3)cc(C)n1 |  |  | female Sprague-Dawley rat, plasma | oral, 10 mg/kg, single dose |  | half-life | 0.749 h |
| O=C(/C=C/C=C/c1ccc2c(c1)OCO2)N1CCCCC1 | NR1I2 (Homo sapiens, UniProt O75469) | reporter gene, agonist, measured: CYP3A4 promoter luciferase | HepG2 without PXR transfection | 24 h |  | EC50 | 0.78 µM |
| Oc1ccc(C(c2ccc(O)cc2)(C(F)(F)F)C(F)(F)F)cc1 |  |  | female rat, plasma | oral, 340 mg/kg, single dose |  | half-life | 44.4 h |
| Cc1cc(O)c(=O)c(O)cc1C(=O)N1CCc2cc(C3CCCCC3)ccc2C1 | herpes simplex virus 1 | viral replication | Vero |  | baseline: CC50 over EC50 | selectivity index | > 1000 |
| C[C@@H]1CCC[C@H](n2cnc(-c3cc(Cl)ccc3-n3cc(Cl)nn3)cc2=O)c2cc(ccn2)-c2c(cnn2C(F)F)NC1=O |  |  | human, plasma | oral, 20 mg, single dose, fasted, healthy volunteers |  | half-life | 8.3 h |

Some of these lines once more:
| SMILES | tested on | test | system | conditions | how to read | endpoint | result |
| --- | --- | --- | --- | --- | --- | --- | --- |
| COc1cc2c(cc1OC)C(CCc1ccc(N(C)C)cc1)N(CC(=O)NCc1ccccc1)CC2 (stereo not shown) | HCRTR1 | calcium signal, antagonist, fluorescence |  |  |  | Kb | > 10 µM |
| CNC(C)(C)C(=O)O | rat hippocampal neurons | calcium-independent uptake, substrate |  | 15 min |  | Km | 474 ± 31 µM |
| COc1cccc(-c2ccc(NC(=O)C3=C(C(=O)O)CCC3)c(F)c2)c1 |  |  | male human, plasma | oral, 20 mg, single dose, fasted, healthy volunteers |  | half-life | 28 h |
